Measurements from different studies.
Values joined by “and” are separate records of one study, mostly repeats; a detail may differ. ± marks the error that the study gave.

For `CC[C@H](C)[C@H](NC(=O)[C@H](Cc1ccc(O)cc1)NC(=O)[C@@H]1CCCN1C(=O)[C@H](CCCNC(=N)N)NC(=O)[C@@H](N)CCCNC(=N)NC(=O)NCCOCCOCC[n+]1c(C)cc(/C=C/C=C/c2ccc(N(C)C)cc2)cc1C)C(=O)N[C@@H](CC(C)C)C(=O)O`, “fluorescence quantum yield” read 34% (PBS with 1% BSA; baseline: cresyl violet perchlorate).
`O[C@H]1CCCN[C@@H]1CCCn1cnc2c(Cl)c(Cl)ccc21` has a CL/F of 236 L/h (healthy humans, plasma; 150 mg single dose).
`C[C@]1(CO)Cc2ncn(-c3ccc(C#N)c(Cl)c3)c2C(=O)O1` — result for “disorders, nervous system, drug related”: 6.7% (human; concentration not given, European multiple ascending dose).
`C[C@H](C(=O)N[C@H]1COc2ccccc2[C@@H]1S(C)(=O)=O)c1ccc(F)cc1` gave a hepatic clearance of 18 mL/min/kg (human cryopreserved hepatocytes; 1 µM).
`CO[C@H]1C[C@@H]2CC[C@@H](C)[C@@](O)(O2)C(=O)C(=O)N2CCCC[C@H]2C(=O)O[C@H]([C@H](C)C[C@@H]2CC[C@@H](OC(=O)NCCOCCOCCOCCOCCOCCOCCOCCOCCC(=O)N3CCc4cc(Cn5nc(-c6ccc7oc(N)nc7c6)c6c(N)ncnc65)ccc4C3)[C@H](OC)C2)C[C@@H](O)[C@H](C)/C=C(\C)[C@@H](O)[C@@H](OC)C(=O)[C@H](C)C[C@H](C)/C=C/C=C/C=C/1C` — result for “incidence of TRAE”: 86% (advanced solid tumour patients; intravenous, dose not given, any grade, all doses).
`Clc1ccc(-c2ccc(Cl)c(Cl)c2)cc1Cl` has a log K(PDMS-water) of 5.58 ± 0.02 (fresh water; 20 °C, S30-2 sampler, 30 µm).
`CC1(C)C(C=C(Cl)Cl)C1C(=O)OC(C#N)c1ccc(F)c(Oc2ccccc2)c1` (stereo not shown) has a CLint of 0.664 mL/min/mg protein (pooled human liver microsomes).
The organ weight of `O=C(O)CCCOc1ccc(F)cc1-c1cc(-c2ccccc2C(F)(F)F)n(-c2ccccc2)n1` is reported as 1.88 ± 0.09 g (female Crl:CD(SD) rats, brain; intravenous, 25 µg/kg, 1 d).
For `COc1c(OCCCN2CCOCC2)ccc2c1N=C(NC(=O)c1cnc(N)nc1)N1CCN=C21`, “decreased white cell count incidence” read 30% (patients with advanced malignancies; intravenous, dose not given, all grades, all cohorts, with: gemcitabine).
`CN1CC[C@@H](c2c(O)cc(O)c3c(=O)cc(-c4ccc(C(F)(F)F)cc4Cl)oc23)[C@@H]1CO` — result for “patients with adverse event”: 0% (refers to: Dizziness; AML; oral, 100 mg, intermittent dosing).
`Cc1cccc(Cn2nc(C3CC3)c3c(NC(=O)c4cnc5cc(OCCN6CCN(C)CC6)ccn45)cccc32)n1` — result for “all-cause adverse events”: 36.8% (CTCAE v4.03, refers to: AST increased; advanced solid tumour patients; oral, dose not given, all cohorts, with: pembrolizumab IV every 3 weeks).
`O=C(O)CCC(CP(=O)(O)O)C(=O)O` (stereo not shown) gave a relative error of -6.8% (rat, plasma; 8 µg/mL, 28 days, -80 °C, long-term stability; baseline: nominal concentration).
For `Clc1cc(Cl)c(-c2cc(Cl)c(Cl)c(Cl)c2Cl)cc1Cl`, the log K(PDMS-water) was 6.73 ± 0.1 (fresh water; 12 (unit not given), 20 °C).
`CCN(CCO)CCCC(C)Nc1ccnc2cc(Cl)ccc12` (stereo not shown): “white cell decrease patients” 14% (newly diagnosed glioblastoma patients; oral, 400 mg/dose, grade 1, with: radiotherapy and temozolomide).
For `CN1CCC(=C2c3ccccc3CC(=O)c3sccc32)CC1`, the IC50 was 3.16 µM (Plasmodium falciparum; GB4).
For `Clc1ccc(-c2ccccc2)cc1`, the glucose was 165 ± 26 mg/dL (Sprague-Dawley rats, female, serum; inhalation, 23 µg/rat, 2 h after exposure).
The Constipation incidence of `Cc1cc(C)c(CNC(=O)c2cc(Cl)c3c(c2C)O[C@@](C)([C@H]2CC[C@H](N(C)C)CC2)O3)c(=O)[nH]1` is reported as 0% (human, relapsed/refractory NHL; concentration not given, treatment-related TEAEs, grade 5).
For `COc1ccnc(C(=O)N[C@H]2COC(=O)[C@H](Cc3ccccc3)[C@@H](OC(=O)C(C)C)[C@H](C)OC2=O)c1OCOC(=O)C(C)C`, the DT50 was 3.5 days (aerobic laboratory soil, dark; geometric mean of 4 soils, not normalised, modelling endpoint).
`COc1cc2c(cc1OC)CN(CCc1ccc(NC(=O)c3cccc4c(=O)c5cccc(OC)c5[nH]c34)cc1)CC2`: “elimination rate constant” 2.02e-05 s⁻¹ (CD-1 mouse, male, lung; intraperitoneal, 10 mg/kg).
For `CC(=O)N[C@@H](CC(N)=O)C(=O)N[C@@H](CCCNC(=N)N)C(=O)N[C@@H](CC(C)C)C(=O)N[C@H]1CSSC[C@@H](C(=O)N[C@H](C(N)=O)[C@@H](C)O)NC(=O)[C@H](CCCNC(=N)N)NC(=O)[C@H](Cc2c[nH]cn2)NC(=O)[C@H](C)NC(=O)CNC(=O)[C@H](Cc2c[nH]c3ccccc23)NC(=O)[C@H](CC(=O)O)NC(=O)[C@H](CCC(N)=O)NC(=O)[C@H](Cc2c[nH]c3ccccc23)NC(=O)[C@H](C(C)C)NC1=O`, “log retention factor” read -0.267 (isocratic RP-HPLC, C18; 32% acetonitrile, phosphate pH 7.4, 1% TFA; 25 °C).
`NC(=O)[C@H]1CCN(c2ncnc(N)c2F)C[C@@H]1N1CCC[C@@H](Nc2cc(Cl)cc(C(F)(F)F)c2)C1=O` — result for “any grade ≥3 adverse event”: 25% (B-cell malignancy patients; oral, 164 mg twice daily, dose).
For `O=C1Nc2cc3[nH]nc(-c4ccncc4)c3cc2CN1Cc1ccccc1`, “patients with cough” read 0% (CTCAE v4.03; advanced solid tumour patients; intravenous, 4.8 mg/kg, schedules 1/2).
`Clc1ccc(Cl)c(-c2cc(Cl)ccc2Cl)c1` has a log K(PDMS-water) of 5.45 ± 0.03 (fresh water; 20 °C, SSP sampler, 100 µm).
`Clc1ccc(Cl)c(-c2cc(Cl)ccc2Cl)c1`: “relative liver weight” 0.0392 g/g body weight (Sprague Dawley rat; intraperitoneal, 10 mg/kg).
Under “incidence of infusion site pain”, `C[C@@H](NC(=O)N1C(=O)[C@H](Cc2ccnc(N)c2)[C@H]1C(=O)O)C1CCCCC1` is recorded as 0% (healthy adult Chinese volunteers; continuous intravenous infusion, 2.25 mg/kg/h, 5-day infusion, CTCAE 5.0 grading).
The mortality of `C=C(CN(C(=O)c1c(C(F)F)nn(C)c1F)C1CC1)c1ccc(Cl)cc1Cl` is reported as 0% (static acute toxicity test; zebrafish (Brachydanio rerio); 0.694 mg a.i./L, 72 h).
`COc1cc(N2CC[C@@]3(O)C(=O)c4cc(C)c(C)cc4N=C23)ccn1` has a recovery time of less than 5 min (cardiac output, echocardiography; rat; IV, 5 mg/kg).
With `NC(=O)[C@@H]1CC(F)(F)CN1C(=O)c1ccc(N2CC(F)(F)C2)c(OCC2CC2)n1` the dose-normalised AUC(0-inf) was 585 kg·ng·h/mL/mg (C57BL/6 mice, plasma; intravenous, dose not given).
`COc1cccc(Oc2ccccc2NC(=O)CNC(=O)c2cccc3ccccc23)c1`: “urea nitrogen/creatinine ratio” 320 and 175 and 185 (esterase-deficient SCID mice, male; oral, 40 mg/kg/day, 14 days, toxicity study).
`COc1ccc(-c2c(-c3ccc(C#N)c(F)c3)nc(N3CCC(N)CC3)n(C)c2=O)cc1F`: “serious adverse event incidence” 0% (refers to: Gout; human patients; oral, 60 mg, dose expansion).
`COc1ccc(F)cc1C(=O)NCc1ccc(-c2nn([C@@H](C)C(F)(F)F)c(N)c2C(N)=O)cc1` gave a tmax of 3 h (human, plasma; oral, 200 mg once daily).
For `CNc1cc(-c2ccnc(Nc3ccc(N4CCN(C)CC4)c(C(F)(F)F)c3)n2)ccn1`, the toxicity was 82 ± 19% (Danio rerio embryos; 5 µM, 5 d).
`C[C@]1(O)C[C@@](N)(c2ccc(-c3nc4n(c3-c3ccccc3)COc3ccncc3-4)cc2)C1`: “patients with Diarrhea TEAE” 50% (human, advanced or metastatic solid tumours; 20 mg once daily, phase I dose escalation).
`O=S(=O)(c1cccc2c(Cl)cccc12)N1CCCNCC1` has an IC50 of 20 µM (Plasmodium falciparum; D10).

Repeated from above:
`COc1ccc(-c2c(-c3ccc(C#N)c(F)c3)nc(N3CCC(N)CC3)n(C)c2=O)cc1F`: “serious adverse event incidence” 0% (refers to: Gout; human patients; oral, 60 mg, dose expansion).
`COc1ccc(F)cc1C(=O)NCc1ccc(-c2nn([C@@H](C)C(F)(F)F)c(N)c2C(N)=O)cc1` gave a tmax of 3 h (human, plasma; oral, 200 mg once daily).
For `CNc1cc(-c2ccnc(Nc3ccc(N4CCN(C)CC4)c(C(F)(F)F)c3)n2)ccn1`, the toxicity was 82 ± 19% (Danio rerio embryos; 5 µM, 5 d).
`C[C@]1(O)C[C@@](N)(c2ccc(-c3nc4n(c3-c3ccccc3)COc3ccncc3-4)cc2)C1`: “patients with Diarrhea TEAE” 50% (human, advanced or metastatic solid tumours; 20 mg once daily, phase I dose escalation).
